Measured values from different studies.
± marks the error that the study gave. In brackets after ≈: the same amount, converted by molar mass.

Compound = CNC(C)Cc1ccc2c(c1)OCO2 (racemic); assay = Drug Effects Questionnaire, refers to: Want More; system = human; setting = oral, 1.5 mg/kg, mean over session, unit not given; scale = reference: pre-dose baseline; quantity = subjective drug effect rating; value = 41.5
Compound = CC(C)c1ccc2c(c1)CC[C@H]1[C@](C)(CN)CCC[C@]21C; target or system = WM35; assay = cell growth or viability, MTS; setting = 72 h; quantity = IC50; value = 2990 nM
Compound = CCCCCCCCCCCCCCCCCC[N+](C)(C)C; assay = ultrafiltration; system = human serum; quantity = unbound fraction in blood; value = 0.07
Compound = C=C1C[C@@H]2[C@H](CC[C@]3(C)C(=O)CC[C@@H]23)[C@@]2(C)C=CC(=O)C=C12; assay = LC-MS/MS; system = postmenopausal breast cancer women, plasma; setting = oral, 25 mg/day steady state, 2 h post-dose, all patients, below LLOQ set to 2.5 ng/mL; quantity = plasma concentration range; value = 2.5 to 72 ng/mL
Compound = NC(=O)c1nc(F)c[nH]c1=O; assay = UV-Vis spectrophotometry; system = supercritical CO2; setting = 120 min, 308 K, 30 MPa, 929.68 kg/m^3; quantity = solubility; value = 1700 µg/mL (≈ 10.8 mM)
Compound = Cn1cc(C2=C(c3cn(C4CCN(Cc5ccccn5)CC4)c4ccccc34)C(=O)NC2=O)c2ccccc21; system = human, cancer patients, plasma; setting = oral, 500 mg once daily, cycle 1 day 22, added: erlotinib 150 mg daily; quantity = CL/F at steady state; value = 53.8 L/h
Compound = C=C(C)[C@@H]1CCC(C)=C[C@H]1c1c(O)cc(CCCCC)cc1O; system = human, plasma; setting = oral, 1.5 to 20 mg, low dose; quantity = average Cmax; value = 2.8 ± 2.2 ng/mL
Compound = Cc1ncc2n1-c1ccc(Cl)cc1C(c1ccccc1F)=NC2; system = healthy men, plasma; setting = oral, 7.5 mg, without amenamevir; quantity = Cmax geometric mean; value = 34.5 ng/mL
Compound = [123I]c1cncc(OC[C@@H]2CCN2)c1; assay = SPECT; system = human, low plasma nicotine, thalamus; setting = intravenous, dose not given; scale = reference: plasma; quantity = tissue/plasma ratio; value = 42.2
Compound = CC(C)[C@H]1C(=O)N[C@@H](CCCN=C(N)N)C(=O)NCC(=O)N[C@@H](CC(=O)O)C(=O)N[C@H](Cc2ccccc2)C(=O)N1C; system = cynomolgus monkey, plasma; setting = intravenous, 2 mg/kg; quantity = clearance; value = 5 mL/min/kg
Compound = C[C@H]1CNCCc2ccc(Cl)cc21; system = Sprague-Dawley rat, male, plasma; setting = subcutaneous, 3 mg/kg, 360 min; quantity = plasma concentration; value = 5.97 ± 0.28 ng/mL
Compound = CS(=O)(=O)CCCn1c(Cn2c(=O)n(CC(F)(F)F)c3ccncc32)cc2cc(Cl)ccc21; system = RSV-infected infants; setting = concentration not given, mid-high dose cohort; quantity = patients with high aPTT; value = 25%
Compound = Cc1cc(C(C#N)c2ccc(Cl)cc2)c(Cl)cc1NC(=O)c1cc(I)cc(I)c1O (stereo not drawn); assay = HPLC, non-compartmental; system = Corriedale lambs, parasitized, plasma; setting = subcutaneous, 5 mg/kg; quantity = elimination half-life; value = 15.9 days
Compound = CC[C@H](C)[C@H](NC(=O)[C@H](CC(C)C)NC(=O)[C@H](Cc1c[nH]c2ccccc12)NC(=O)[C@H](CCC(N)=O)NC(=O)[C@@H](NC(=O)[C@H](Cc1ccccc1)NC(=O)[C@H](C)NC(=O)[C@H](CCCCNC(=O)COCCOCCNC(=O)COCCOCCNC(=O)CC[C@H](NC(=O)CCCCCCCCCCCCCCCCCCC(=O)O)C(=O)O)NC(=O)[C@H](CCC(N)=O)NC(=O)[C@H](C)NC(=O)[C@@H](NC(=O)[C@H](CCCCN)NC(=O)[C@H](CC(=O)O)NC(=O)[C@H](CC(C)C)NC(=O)C(C)(C)NC(=O)[C@@H](NC(=O)[C@H](CO)NC(=O)[C@H](Cc1ccc(O)cc1)NC(=O)[C@H](CC(=O)O)NC(=O)[C@H](CO)NC(=O)[C@@H](NC(=O)[C@H](Cc1ccccc1)NC(=O)[C@@H](NC(=O)CNC(=O)[C@H](CCC(=O)O)NC(=O)C(C)(C)NC(=O)[C@@H](N)Cc1ccc(O)cc1)[C@@H](C)O)[C@@H](C)O)[C@@H](C)CC)[C@@H](C)CC)C(C)C)C(=O)N[C@@H](C)C(=O)NCC(=O)NCC(=O)N1CCC[C@H]1C(=O)N[C@@H](CO)C(=O)N[C@@H](CO)C(=O)NCC(=O)N[C@@H](C)C(=O)N1CCC[C@H]1C(=O)N1CCC[C@H]1C(=O)N1CCC[C@H]1C(=O)N[C@@H](CO)C(N)=O; system = human, moderate renal impairment, plasma; setting = subcutaneous, 5 mg single dose, geometric mean; quantity = CL/F; value = 0.802 mL/min
Compound = Clc1cc(Cl)c(-c2c(Cl)ccc(Cl)c2Cl)cc1Cl; system = rat liver microsomes; setting = 50 µM, 30 min, remaining parent PCB; quantity = enantiomeric fraction; value = 0.46
Compound = CC(=O)N[C@H](CCCCNC(=O)C(C)F)C(=O)N[C@@H](CS)C(=O)N[C@@H](CS)C(=O)N[C@@H](CCC(=O)O)C(=O)N[C@@H](Cc1c[nH]cn1)C(=O)N[C@H](Cc1ccccc1)C(=O)N[C@@H](CCCNC(=N)N)C(=O)N[C@@H](Cc1c[nH]c2ccccc12)C(=O)N[C@@H](CS)C(=O)N[C@@H](CCCNC(=N)N)C(=O)N1CCC[C@H]1C(=O)N[C@H](C(N)=O)C(C)C (stereo partly drawn) [fluorine-18 labelled]; system = nude mice, A375M xenograft, spleen; setting = intravenous, 2 h; quantity = tissue uptake; value = 0.34 ± 0.19 %ID/g
Compound = c1ccc(CCN2CCCCC2)cc1; target or system = opioid receptors, rat; assay = binding; system = rat forebrain; setting = added: [3H]naloxone 1 nM; quantity = Ki; value = > 10 µM
Compound = CN[C@@](C)(C[18F])C(=O)O; system = mouse, blood; setting = 15 min, tumour-bearing; quantity = tracer uptake; value = 2.4 %ID/g
